Assay results gathered from unrelated publications.
Every numbered part comes from another study and shows a few of its results, in no order.

Study 1 — technique: RNA Bind-n-Seq; form: RNA; medium: in vitro; concentration: 365 nM; relative to: no-protein control; reading: higher = stronger binding
Target: RNA binding protein fox-1 homolog 2, RRM domain, GST-SBP tag (RBFOX2, Homo sapiens, UniProt O43251-10, residues 100-194)
Setting: natural RNA segment, single round, ends assumed
Residues (chain): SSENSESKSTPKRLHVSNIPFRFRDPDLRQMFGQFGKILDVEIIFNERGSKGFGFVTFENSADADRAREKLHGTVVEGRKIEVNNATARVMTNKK
`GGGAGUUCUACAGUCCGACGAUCUUUAGUUUAGAAGUGCUAUAUUCCACAAGGGUUAAGUCAAUGAGGUUGGAAGACACCUAUCUUUUUUUUUAAUUCAAAAAGCACAAUCAGUCUUUCCUUUGAAAAUCCAUUGGAAUUCUCGGGUGCCAA` — result for “RBNS enrichment (R)”: 0.51.
For `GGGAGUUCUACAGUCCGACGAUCUAGACUCAGUCAGGAGUGGUGGUGACACUUGUAAUCCUAGACAGGCAAAAGGGUCACCAGAGGCUUGAGGCCAGCCAGGGCUCCAUAAGGAGAUCAGCCGCCCCCACCCAUGGAAUUCUCGGGUGCCAA`, “RBNS enrichment (R)” read 0.222.
Under “RBNS enrichment (R)”, `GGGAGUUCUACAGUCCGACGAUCGCAAGUACCAGACCAGUGAACAGCUCCGGAGGAACAGGUUGUUCUCUGACCUCUACACGUAUGCCACGCUUGUACCCACACACGCGCACACACACAGACUUAUAAUGCAAUGGAAUUCUCGGGUGCCAA` is recorded as 2.47.
`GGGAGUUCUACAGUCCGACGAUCAGUUCAUAACCAGCUUCAUAUUUUAAAGGCUUCAGGUUUGAAAUUAAGUCAACUGCAUGCAGCUUUGCUGAUAAAUGAAUAAUUCUCUUUGAUGCCAUUUAUGAGAAAAGUGGAAUUCUCGGGUGCCAA`: “RBNS enrichment (R)” 2.52.
`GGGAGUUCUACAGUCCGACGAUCAGUUUUAAAACAUCUUUAGUUUUCAAAGUAAACUGGAUAUGUGGACCUUAAAGUUAUUGAGUUUAAGCUACAAAUUGUAACGUCAUUACUGGACAUGUCAGCAUCAACCCUGGAAUUCUCGGGUGCCAA` — result for “RBNS enrichment (R)”: 0.389.
`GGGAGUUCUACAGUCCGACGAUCUGAAAUUUAAAAAUAAAUGAAGGAAUAUAGAGAUGGCACAGGGUUCCAGCUUGUUGUGUUUAUAAAUCAUAAAGUCAUGAUAUACCUUCUACAGACAUAGCAUUUUUUCAUGGAAUUCUCGGGUGCCAA`: “RBNS enrichment (R)” 1.63.
Under “RBNS enrichment (R)”, `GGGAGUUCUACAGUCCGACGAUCAGGCAGUUAUCACCCCUCUGCUGCCGUAUUCAUCACCCAGGCUCUCUUACAAGUUCCUUGUUAAUGCACAAGCGUAGGGACCCUUGUACAGACUCUGGCAGUAUUGAUGAUGGAAUUCUCGGGUGCCAA` is recorded as 0.628.
Under “RBNS enrichment (R)”, `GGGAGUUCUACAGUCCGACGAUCUGCUUUGCUUAGCCACUACUGGAUUUGUUUGGCUGGCCACUGGGUGGCAGCAUAGGUUCUAAUUUUCUUUUGAAGAGAAAUUGUGGGAAGGGUAAACUUUUGAGAUUUUUUGGAAUUCUCGGGUGCCAA` is recorded as 1.61.
`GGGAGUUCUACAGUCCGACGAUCAGGGUAAACCAGUAGGGAAUACAGUACAAUCCCAACCCUACUGGGAGGGGCGGGAGGGAGGUGUUGCCGUCACUGUAUUAAGUCGAUGUUGGGAAACGUUUUAACAUCUGUGGAAUUCUCGGGUGCCAA` — result for “RBNS enrichment (R)”: 0.521.

Study 2 — technique: RNA Bind-n-Seq; form: RNA; medium: in vitro; concentration: 200 nM; setting: whole 134-nt RNA, ends assumed; together with: 150 mM KCl; relative to: input library; reading: higher = stronger binding
Target: Ras GTPase-activating protein-binding protein 1, full length (G3BP1, Homo sapiens, UniProt Q13283)
UniProt Q13283, sequence (whole entry, looked up): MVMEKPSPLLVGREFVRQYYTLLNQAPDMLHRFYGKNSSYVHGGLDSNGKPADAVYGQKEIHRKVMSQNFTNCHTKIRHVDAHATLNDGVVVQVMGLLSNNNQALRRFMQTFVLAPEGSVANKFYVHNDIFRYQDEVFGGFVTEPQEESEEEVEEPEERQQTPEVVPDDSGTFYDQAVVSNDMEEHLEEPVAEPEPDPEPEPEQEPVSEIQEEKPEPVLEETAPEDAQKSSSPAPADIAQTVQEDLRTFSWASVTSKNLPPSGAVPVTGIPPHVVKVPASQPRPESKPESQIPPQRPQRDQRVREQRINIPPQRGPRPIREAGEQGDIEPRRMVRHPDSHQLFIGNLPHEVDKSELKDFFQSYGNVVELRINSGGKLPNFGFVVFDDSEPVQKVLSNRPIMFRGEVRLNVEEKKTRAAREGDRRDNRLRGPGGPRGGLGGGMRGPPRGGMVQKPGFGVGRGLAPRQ
`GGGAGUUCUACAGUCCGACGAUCAAGUCCUGUGCUACACAUCGUAUGUACCGAAUCGGGAGGGUUUGGGUUUUUUUGGGAAAGUAUUAUGUUACGCCGUUCGGAUCUGCACUUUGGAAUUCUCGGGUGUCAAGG` has a log2 enrichment of -0.0581.
The log2 enrichment of `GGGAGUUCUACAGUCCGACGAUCAGUCCUGUGCUACACAUCGUAUGUACCGAAUCGGGAAAAGGGGAAAAGGAAAAGGGGAAAGUAUUAUGUUACGCCGUUCGGAUCUGCACUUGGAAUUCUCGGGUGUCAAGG` is reported as -0.226.
The log2 enrichment of `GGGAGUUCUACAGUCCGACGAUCAGUCCUGUGCUACACAUCGUAUGUACCGAAUCGGGAAAAAGGAAAAAGGGAAAAAGGAAAGUAUUAUGUUACGCCGUUCGGAUCUGCACUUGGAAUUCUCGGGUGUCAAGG` is reported as -0.862.
For `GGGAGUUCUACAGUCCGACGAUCCUGUGCUACACAUCGUAUGUACCGAAUCGGGGUUUUUUUGGUUUUUUUGGGUUUUUUUGGGAAAGUAUUAUGUUACGCCGUUCGGAUCUGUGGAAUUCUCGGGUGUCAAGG`, the log2 enrichment was -1.
`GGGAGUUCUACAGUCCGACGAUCACCAUGCAGGUGGGCAUCUUUGGGAAGUGGGGCAAGGGGGGGAUACGGAGGGGGGUAACACUUUGGGAACAGGUGGUCCCAGGUCGUUUCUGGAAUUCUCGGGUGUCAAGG` gave a log2 enrichment of 1.02.

Study 3 — technique: RNA Bind-n-Seq; form: RNA; medium: in vitro; concentration: not given; relative to: input RNA pool; reading: higher = stronger binding
Target: RING finger protein unkempt homolog, zinc fingers 1-6, GST-SBP tag (UNK, Homo sapiens, UniProt Q9C0B0, residues 30-357)
UniProt Q9C0B0, sequence (30-357, looked up): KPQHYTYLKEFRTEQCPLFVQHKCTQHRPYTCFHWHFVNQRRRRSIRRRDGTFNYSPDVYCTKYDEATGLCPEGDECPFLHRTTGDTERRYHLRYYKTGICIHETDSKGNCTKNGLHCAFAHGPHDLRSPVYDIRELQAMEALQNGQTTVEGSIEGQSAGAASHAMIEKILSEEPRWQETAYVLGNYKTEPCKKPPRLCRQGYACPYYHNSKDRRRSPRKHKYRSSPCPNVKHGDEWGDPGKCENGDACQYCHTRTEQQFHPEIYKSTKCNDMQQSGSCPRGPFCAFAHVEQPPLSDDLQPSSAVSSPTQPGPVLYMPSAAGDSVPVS
Setting: RNA with constant flanks, human-mouse chimeric sites, ends assumed
`GGGAGUUCUACAGUCCGACGAUCAGAAUCUUGGGACUGUUUUACUUAAUUGGUCAUUGAUAGCUUAACAAGCAUGGAGAUAAGAUUAGAAAUCUUGACAUCAACAGGUAUUAAGCAGAAAAAACCCUGGCCACGUGUCUCCUGCAACAGAGGAUUGAGCAUCA` has a bound/input enrichment of 0.197 ratio.
For `GGGAGUUCUACAGUCCGACGAUCGGACAUCUGUCAAAUUGUUAUGUUCCUGUGAAACAAGUGAACACUCUGAUACACUUCAUCUGCUUGUACAUCUGUAUGAUAGAGAAACAGAAAUCUAAAUAUAUUUACAAUGUGUCACUUCAACAGAGGAUUGAGCAUCA`, the bound/input enrichment was 0.246 ratio.
With `GGGAGUUCUACAGUCCGACGAUCGAUAGGAAAAGCUUGUUGGAGACCCGCUUGCAUGUCACUGGUAGAGACCUGAGGUGUCAAAUAGCUGAAACUUUCGGACUUCAAGAAAAUUACAUCAAGAUCGUAAUAAAUAAGAAACAGCAACAGAGGAUUGAGCAUCA` the bound/input enrichment was 0.527 ratio.
The bound/input enrichment of `GGGAGUUCUACAGUCCGACGAUCUAAGUCCUGUGCCAGCACUUCGCUCAUUAUAUUUUAAAUUCUGGACCAAUAGUGUUUGUUUCCUGAUUAUUGUAUCCAAUACUUUAUCUAGUAUGUAACUCACUCUUACUGAUAAUAAAACAACAGAGGAUUGAGCAUCA` is reported as 3.52 ratio.

Other studies, line by line
`PhoQ, residues 284 288 289 292 302 303 SSCLAV` has a fold induction of 2.57 (PhoP, residues 12 14 15 18 19 AQCLL (Escherichia coli, UniProt P23836); Sort-seq, refers to: YFP reporter; E. coli; PhoQ-PhoP variant library, together with: 10 µM Mg2+; relative to: high Mg2+ state, higher = stronger signaling).

A few entries again (study 3):
For `GGGAGUUCUACAGUCCGACGAUCGGACAUCUGUCAAAUUGUUAUGUUCCUGUGAAACAAGUGAACACUCUGAUACACUUCAUCUGCUUGUACAUCUGUAUGAUAGAGAAACAGAAAUCUAAAUAUAUUUACAAUGUGUCACUUCAACAGAGGAUUGAGCAUCA`, the bound/input enrichment was 0.246 ratio.
With `GGGAGUUCUACAGUCCGACGAUCGAUAGGAAAAGCUUGUUGGAGACCCGCUUGCAUGUCACUGGUAGAGACCUGAGGUGUCAAAUAGCUGAAACUUUCGGACUUCAAGAAAAUUACAUCAAGAUCGUAAUAAAUAAGAAACAGCAACAGAGGAUUGAGCAUCA` the bound/input enrichment was 0.527 ratio.
